Published values gathered from unrelated publications.
Protocols differ between the studies behind these lines. ± gives the spread as reported. In brackets after ≈: the same amount, converted by molar mass.

Sequences of proteins named here, by UniProt entry; tags and fusion partners are left off.
UniProt Q9UQ07, whole entry: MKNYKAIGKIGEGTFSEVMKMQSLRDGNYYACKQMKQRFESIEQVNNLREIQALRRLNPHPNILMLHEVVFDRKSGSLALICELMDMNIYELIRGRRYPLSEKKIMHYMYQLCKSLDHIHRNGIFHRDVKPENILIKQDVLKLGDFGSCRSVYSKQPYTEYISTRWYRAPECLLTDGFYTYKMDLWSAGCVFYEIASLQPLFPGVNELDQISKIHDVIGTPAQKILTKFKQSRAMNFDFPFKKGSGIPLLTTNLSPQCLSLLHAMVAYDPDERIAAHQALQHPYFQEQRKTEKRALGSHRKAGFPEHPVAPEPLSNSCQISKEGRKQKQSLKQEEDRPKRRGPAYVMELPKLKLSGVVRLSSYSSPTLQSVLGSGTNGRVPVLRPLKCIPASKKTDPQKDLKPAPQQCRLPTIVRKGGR
UniProt P54753, whole entry, looked up: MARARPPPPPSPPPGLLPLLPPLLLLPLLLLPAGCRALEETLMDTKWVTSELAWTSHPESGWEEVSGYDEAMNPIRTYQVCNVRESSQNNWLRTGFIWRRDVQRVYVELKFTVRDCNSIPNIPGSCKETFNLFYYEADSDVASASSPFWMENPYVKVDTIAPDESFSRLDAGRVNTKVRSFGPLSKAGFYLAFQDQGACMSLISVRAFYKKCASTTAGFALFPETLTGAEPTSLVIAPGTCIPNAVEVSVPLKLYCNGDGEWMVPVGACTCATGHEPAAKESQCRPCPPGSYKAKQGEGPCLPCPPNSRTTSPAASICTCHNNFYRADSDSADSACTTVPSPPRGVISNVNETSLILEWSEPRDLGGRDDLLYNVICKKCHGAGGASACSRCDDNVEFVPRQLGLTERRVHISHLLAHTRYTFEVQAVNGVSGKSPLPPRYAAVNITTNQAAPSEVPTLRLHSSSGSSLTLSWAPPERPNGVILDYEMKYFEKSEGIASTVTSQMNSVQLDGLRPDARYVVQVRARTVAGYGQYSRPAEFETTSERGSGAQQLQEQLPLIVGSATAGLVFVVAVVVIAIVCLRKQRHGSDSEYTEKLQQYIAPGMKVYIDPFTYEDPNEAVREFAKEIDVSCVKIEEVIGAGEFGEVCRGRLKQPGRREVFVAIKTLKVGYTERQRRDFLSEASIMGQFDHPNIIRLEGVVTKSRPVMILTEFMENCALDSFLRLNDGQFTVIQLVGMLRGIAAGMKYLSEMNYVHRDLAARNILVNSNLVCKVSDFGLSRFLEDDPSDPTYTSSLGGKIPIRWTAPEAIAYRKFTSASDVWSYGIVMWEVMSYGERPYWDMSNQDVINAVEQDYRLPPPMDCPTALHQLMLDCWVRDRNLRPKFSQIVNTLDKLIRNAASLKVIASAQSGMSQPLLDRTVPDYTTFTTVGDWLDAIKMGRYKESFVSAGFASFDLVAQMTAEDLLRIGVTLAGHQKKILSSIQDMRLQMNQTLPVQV

| Molecule | tested on | assay | test system | conditions | scale | measurement | value |
| --- | --- | --- | --- | --- | --- | --- | --- |
| Nc1ccc(C(=O)O)c(O)c1 | Mycobacterium bovis | – | BCG Tac^r10.2, thyA W98R missense | TA-C-resistant thyA mutant | – | MIC50 | > 100 µM |
| CCCCCCCCCCCCCCCC(=O)NCCCC[C@H](NC(=O)CCNC(=O)[C@H](CCCCN)NC(=O)[C@H](CCCCN)NC(=O)[C@H](CCC(N)=O)NC(=O)[C@@H](NC(=O)[C@H](CCC(=O)O)NC(=O)[C@H](CCC(=O)O)NC(=O)[C@@H](NC(=O)[C@H](CCCCN)NC(=O)[C@H](CCCCN)NC(=O)[C@H](CCC(N)=O)NC(=O)[C@@H](NC(=O)[C@H](CCC(=O)O)NC(=O)[C@H](CCC(=O)O)NC(=O)[C@@H](NC(=O)[C@H](CCCCN)NC(=O)[C@H](CCCCN)NC(=O)[C@H](CCC(N)=O)NC(=O)[C@@H](NC(=O)[C@H](CCC(=O)O)NC(=O)[C@H](CCC(=O)O)NC(=O)[C@@H](NC(=O)[C@H](CCCCN)NC(=O)[C@H](CCCCN)NC(=O)[C@H](CCC(N)=O)NC(=O)[C@@H](NC(=O)[C@H](CCC(=O)O)NC(=O)[C@H](CCC(=O)O)NC(=O)[C@@H](NC(=O)[C@H](CCCCN)NC(=O)[C@H](CCCCN)NC(=O)[C@H](CCC(N)=O)NC(=O)[C@@H](NC(=O)[C@H](CCC(=O)O)NC(=O)[C@H](CCC(=O)O)NC(=O)[C@@H](NC(C)=O)[C@@H](C)CC)[C@@H](C)CC)[C@@H](C)CC)[C@@H](C)CC)[C@@H](C)CC)[C@@H](C)CC)[C@@H](C)CC)[C@@H](C)CC)[C@@H](C)CC)[C@@H](C)CC)C(N)=O | influenza A virus | – | MDCK, A/Hong Kong/8/68 H3N2 | – | reference: CC50 over EC50 | selectivity index | > 143 |
| CCN1CCN(Cc2ccc(NC(=O)c3ccc(C)c(/C=C/c4cnc5[nH]ccc5c4OC)c3)cc2C(F)(F)F)CC1 | MOK (Homo sapiens, UniProt Q9UQ07) | inhibitor | – | 5 µM | reference: no inhibitor | log2 fold change | -0.257 |
| CCC(C)C1NC(=O)/C(=C(/C)O)C1=O (stereo not shown) | Arabidopsis thaliana | – | Col-0, seedlings on agar | 2.5 µM, 6 d | reference: untreated seedlings | root length reduction | 1.6 cm |
| CC(C)COc1ccc2nc3ccc(=O)cc-3oc2c1 | Mycobacterium tuberculosis | – | mc2 6206 bedaquiline-resistant MmpL5 regulator mutant | 7 days | – | MIC90 | 9.9 µM (≈ 2.67 µg/mL) |
| CC#C/C(=N\OC[C@H]1COCCN1)c1ccc2ncnc(Nc3ccc(OCc4cccc(F)c4)c(Cl)c3)c2c1 | EPHB3 (Homo sapiens, UniProt P54753) | kinase activity | – | 10 µM | – | inhibition | -11.7% |
| COCCOc1ccc2nc3ccc(=O)c(Cl)c-3oc2c1 | Mycobacterium tuberculosis | – | mc2 6206 PA-824-resistant ddn mutant | 7 days | – | MIC90 | 9.7 µM (≈ 2.97 µg/mL) |
| CO[C@H]1/C=C/O[C@@]2(C)Oc3c(C)c(O)c4c(O)c(c(/C=N/N5CCN(C)CC5)c(O)c4c3C2=O)NC(=O)/C(C)=C\C=C\[C@H](C)[C@H](O)[C@@H](C)[C@@H](O)[C@@H](C)[C@H](OC(C)=O)[C@@H]1C | Mycobacterium bovis | – | BCG Tac^r9.1, thyA mutant | TA-C-resistant thyA mutant | – | MIC50 | 0.0016 µM (≈ 0.00132 µg/mL) |
| O=c1oc(-c2ccccn2)ns1 | Mycobacterium bovis BCG | – | – | 25 µM | – | reduction in viable count | 1 log CFU |
| COc1cc(C(=O)NS(=O)(=O)c2ccccc2C)ccc1Cc1cn(C)c2ccc(NC(=O)OC3CCCC3)cc12 | vesicular stomatitis virus | viral replication | VSV-eGFP | concentration not given | – | inhibition | 12% |
| O=c1ccc2nc3ccc(OCC(O)C(F)(F)F)cc3oc-2c1 (stereo not shown) | Mycobacterium tuberculosis | – | mc2 6206 clofazimine-resistant fbiC mutant | 7 days | – | MIC90 | 12 µM (≈ 3.9 µg/mL) |
| CC1(C)CCC(Cc2cc(O)c(-c3ccccc3)c(=O)[nH]2)CC1 | Mycobacterium tuberculosis | – | H37Rv | concentration not given | – | resistance mutation frequency | 1e-08 per cell |
| O=c1ccc2nc3ccc(OCc4ccc([N+](=O)[O-])o4)cc3oc-2c1 | Mycobacterium tuberculosis | – | mc2 6206, fbiC mutant, clofazimine-resistant | – | – | MIC90 | inactive |
| Cc1cc2c(c(=S)[nH]1)C(=O)O/C2=C\c1c[nH]c2ccc(F)cc12 | Influenza A virus | viral replication, CPE, MTT | MDCK, A/Hong Kong/8/68 (H3N2) | 72 h | – | EC50 | 17.4 ± 6.3 µM |
| O=[N+]([O-])c1ccc(N2CCN(c3ccc([N+](=O)[O-])cc3[N+](=O)[O-])CC2)c([N+](=O)[O-])c1 | Pseudomonas aeruginosa | – | multidrug-resistant clinical isolate | – | – | MIC | > 500 µg/mL |
| NNC(=O)c1ccncc1 | Mycobacterium bovis | – | BCG Tac^r10.1, thyA H147Y missense | TA-C-resistant thyA mutant | – | MIC50 | 0.4 µM (≈ 0.0549 µg/mL) |
| EDDHA | Cryptococcus neoformans | – | – | alone | – | MIC80 | 12.5 µM |
| CCOc1ccc2nc3ccc(=O)cc-3oc2c1 | Mycobacterium tuberculosis | – | mc2 6206 clofazimine-resistant fbiC mutant | 7 days | – | MIC90 | 18 µM (≈ 4.34 µg/mL) |
| O=[N+]([O-])c1cn2c(n1)OC[C@@H](OCc1ccc(OC(F)(F)F)cc1)C2 | Mycobacterium bovis | – | BCG Tac^r10.2, thyA W98R missense | TA-C-resistant thyA mutant | – | MIC50 | 0.2 µM (≈ 0.0719 µg/mL) |

Repeated from above:
| Molecule | tested on | assay | test system | conditions | scale | measurement | value |
| --- | --- | --- | --- | --- | --- | --- | --- |
| O=[N+]([O-])c1ccc(N2CCN(c3ccc([N+](=O)[O-])cc3[N+](=O)[O-])CC2)c([N+](=O)[O-])c1 | Pseudomonas aeruginosa | – | multidrug-resistant clinical isolate | – | – | MIC | > 500 µg/mL |
